Results pooled from the literature.
Numbered parts are unrelated; each lists some results of a single study. Substitutions count along the parent as printed.

Sample 1 — target: ATF5, bZIP domain (human); technique: DHFR protein complementation; matrix: yeast; relative to: wild-type JUN-FOS pair; reading: higher = stronger binding
Setting: single substitutions, most at no-binding floor
Starting sequence: JUN, bZIP domain (human); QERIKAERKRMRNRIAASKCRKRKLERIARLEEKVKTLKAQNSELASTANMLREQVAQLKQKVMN; partner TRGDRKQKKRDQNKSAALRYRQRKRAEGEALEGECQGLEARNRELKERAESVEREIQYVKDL
`R53L` gave a binding fitness of -1.54 natural log.
The binding fitness of `R30Y` is reported as -1.46 natural log.
`L45V` gave a binding fitness of -1.48 natural log.
The binding fitness of `K36W` is reported as -1.43 natural log.
With `Q55L` the binding fitness was -1.3 natural log.
`E54C` has a binding fitness of -1.52 natural log.
`L31S` gave a binding fitness of -1.49 natural log.
`V35P` has a binding fitness of -1.51 natural log.
`K34T` has a binding fitness of -1.4 natural log.
The binding fitness of `Q41K` is reported as -1.49 natural log.
`Q41I` has a binding fitness of -1.5 natural log.
With `K36T` the binding fitness was -1.54 natural log.
For `L38G`, the binding fitness was -1.47 natural log.
With `K36F` the binding fitness was -1.49 natural log.
For `E33M`, the binding fitness was -1.35 natural log.
`S47A` gave a binding fitness of -1.55 natural log.
The binding fitness of `K34A` is reported as -1.5 natural log.
`E44K` has a binding fitness of -1.4 natural log.
With `R30S` the binding fitness was -1.38 natural log.
`I28Q` has a binding fitness of -1.35 natural log.
`E44D` has a binding fitness of -1.13 natural log.

Sample 2 — technique: RNA Bind-n-Seq; molecule type: RNA; matrix: in vitro; concentration: 365 nM; relative to: no-protein control; reading: higher = stronger binding
Target: RNA binding protein fox-1 homolog 2, RRM domain, GST-SBP tag (RBFOX2, Homo sapiens, UniProt O43251-10, residues 100-194)
Setting: natural RNA segment, single round, ends assumed
Target sequence (chain): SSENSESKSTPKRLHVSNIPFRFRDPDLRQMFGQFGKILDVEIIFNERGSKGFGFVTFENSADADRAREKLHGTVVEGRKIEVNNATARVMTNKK
`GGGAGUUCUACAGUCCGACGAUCCCCUUGCCUUAGGAUCCUGGUGCAGGUCCUAGUUGUUAUCUGCUCAGCCGGAGUUGAGAAGGAGUAACAGGUCUGAGGCUGUCCCGGAGAACCACCCAUCCCAGCUCAGCUGGAAUUCUCGGGUGCCAA` — result for “RBNS enrichment (R)”: 0.259.
For `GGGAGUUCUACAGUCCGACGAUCUGAGGGUUCCCAGGUUAUGUGGCACCUGCGGAAACCAUGUCUAGAGUCGUUUCUAUGUAGCUUGGCAGAGCCCACUGAUGGCUGCAGGUGUGUAGCCUACUGACAGCUUUUGGAAUUCUCGGGUGCCAA`, “RBNS enrichment (R)” read 0.674.
Under “RBNS enrichment (R)”, `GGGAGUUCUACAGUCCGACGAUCGAAGCACUGCAGUGUGCAGAGGCUCUCCUUGACCUUUCUACUUUUGACACGGGUCCCUGUUCGAGAAUUUCCAGUUAGCCCCAGAAGAGACUGGUUCUCCUGACCCCCACUGGAAUUCUCGGGUGCCAA` is recorded as 0.523.
`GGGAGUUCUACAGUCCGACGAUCUUCCCUUGAGCCAGCUCCAUUGCUACUUAUUCAUGUGACUGAAGCUGACCACAGGCAGCUGGCAGGUCCUUUUUUCAACCAGCAGGCUAGGCUGGCCAUAGACCCAGCUCUGGAAUUCUCGGGUGCCAA` — result for “RBNS enrichment (R)”: 0.426.
For `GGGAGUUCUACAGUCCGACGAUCCUCAGCAUAUCAAGUUUAGGCAGCAAGGGAAAGGAAUAUGGGUCAGUUCUCAAAUGUCAAUGUAGAUAAGAGUCAUCUAGUAGAGAACUCAUCAGAGUGCGGAUUGCCAAUGGAAUUCUCGGGUGCCAA`, “RBNS enrichment (R)” read 1.02.
`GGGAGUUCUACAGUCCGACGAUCCCUAAGAAUAUAUACUAUGGAGUCUAUGGACCACUGUAGAGAAGUUUUUAGUCUAGCCUGUUUGAUUACUUGUAAAUCUCUGCUAGAAGGAGAGAAUUUUCCAGACAACUUGGAAUUCUCGGGUGCCAA`: “RBNS enrichment (R)” 0.344.
`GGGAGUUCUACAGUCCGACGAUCACCCGGCAGCUUCUGGAGUUUGUCAGUGGAGGCAGAGGGGAUCCGGCCAGGCCCCUCUGUCCAGAAGGAGCUGCCCUGAGGACCAUCUUAGCGGCCCUGUCCUCUUUUUCUGGAAUUCUCGGGUGCCAA` — result for “RBNS enrichment (R)”: 1.08.
Under “RBNS enrichment (R)”, `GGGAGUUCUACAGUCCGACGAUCACUUUCUGACAAGCUGAAGCUAAUUGGUUCUUGAAUCUGAGUUGUUUCAAUUUAGGCCAAGUACUAGAACAAGGAAUCAUCAAAGAUAUAUGGGUAGAUUUUAUUAUGUAUGGAAUUCUCGGGUGCCAA` is recorded as 0.447.

Sample 3 — target: UBE2J1 UBC core domain (UniProt Q9Y385); technique: yeast two-hybrid; matrix: yeast; setting: mostly zero background; relative to: not given; reading: higher = stronger interaction
Sequence of UniProt Q9Y385 (whole entry, looked up): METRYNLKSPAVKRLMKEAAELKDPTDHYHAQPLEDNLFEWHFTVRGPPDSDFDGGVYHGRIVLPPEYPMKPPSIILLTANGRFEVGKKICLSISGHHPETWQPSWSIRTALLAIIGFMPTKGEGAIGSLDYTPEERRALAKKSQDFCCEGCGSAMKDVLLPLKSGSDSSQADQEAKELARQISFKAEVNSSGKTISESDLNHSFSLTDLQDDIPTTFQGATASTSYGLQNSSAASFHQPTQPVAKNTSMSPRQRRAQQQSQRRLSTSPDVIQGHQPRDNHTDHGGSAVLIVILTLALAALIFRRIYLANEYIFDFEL
B1: ZMIZ2 RING domain (UniProt Q8NF64); chain GTIPGTPGPNGEDGVEQTAIKVSLKCPITFRRIQLPARGHDCRHIQCFDLESYLQLNCERGTWRCPVCNKTALLEGLEVDQYMLGILIYIQNSDYEEITIDPTCSWK
B2: RBCK1 RING domain (UniProt Q9BYM8); chain SLVLNTEPAECPVCYSVLAPGEAVVLRECLHTFCRECLQGTIRNSQEAEVSCPFIDNTYSCSGKLLEREIK
B3: SYTL4 RING domain (UniProt Q96C24); chain RGSQHYSDRTCARCQESLGRLSPKTNTCRGCNHLVCRDCRIQESNGTWRCKVCAKEIELKKAT
B4: TRIM62 RING domain (UniProt Q9BVG3); chain MACSLKDELLCSICLSIYQDPVSLGCEHYFCRRCITEHWVRQEAQGARDCPECRRTFAEPALAP
B5: RNF133 RING domain (UniProt Q8WVZ7); chain DEEINPNGDSCVICFERYKPNDIVRILTCKHFFHKNCIDPWILPHGTCPICKCDILKVLGIQ
B6: MAP3K1 RING domain (UniProt Q13233); chain NSIKDEEEQMCPICLLGMLDEESLTVCEDGCRNKLHHHCMSIWAEECRRNREPLICPLCRSKWRSHDFYS
B7: RNF19A RING domain (UniProt Q9NV58); chain ISKQIGDFIECPLCLLRHSKDRFPDIMTCHHRSCVDCLRQYLRIEISESRVNISCPECTERFNPHDIR
For `B1 (ZMIZ2 RING domain)`, “lacZ reporter activity” read 0.
`YQNEVDDDLVCHICLQPLLQPLDTPCGHTFCYKCLRNFLQEKDFCPLDRKRLHFKLCKK (LNX2 RING domain (UniProt Q8N448))` — result for “lacZ reporter activity”: 0.
`B2 (RBCK1 RING domain)` — result for “lacZ reporter activity”: 0.
`AVPSGLEENLCKICMDSPIDCVLLECGHMVTCTKCGKRMNECPICRQYVIRAVHVF (RFFL RING domain (UniProt Q8WZ73))` — result for “lacZ reporter activity”: 0.
Under “lacZ reporter activity”, `B3 (SYTL4 RING domain)` is recorded as 0.
Under “lacZ reporter activity”, `B4 (TRIM62 RING domain)` is recorded as 0.
Under “lacZ reporter activity”, `B5 (RNF133 RING domain)` is recorded as 0.
`B6 (MAP3K1 RING domain)` — result for “lacZ reporter activity”: 0.
Under “lacZ reporter activity”, `B7 (RNF19A RING domain)` is recorded as 0.
`GSDDEEIPFKCFICRQSFQNPVVTKCRHYFCESCALQHFRTTPRCYVCDQQTNGVFNPA (RNF113A RING domain (UniProt O15541))` — result for “lacZ reporter activity”: 0.
For `NLSELTPYILCSICKGYLIDATTITECLHTFCKSCIVRHFYYSNRCPKCNIVVHQTQPLY (PCGF6 RING domain (UniProt Q9BYE7))`, “lacZ reporter activity” read 0.

Sample 4 — target: CCNB1, cyclin fold, Cln2 fusion (human); technique: yeast growth competition, sequencing; matrix: yeast; setting: weak parent motif; relative to: not given; reading: higher = stronger binding
Starting sequence: BRCA2 docking peptide (human); CKKRRALDFLSRL
`CAKRRALDFLSRL [K2A]` — result for “normalised enrichment score”: 0.518.
`CKKRKALDLLSRL [R5K F9L]` — result for “normalised enrichment score”: 0.422.
`CKKRRALDFLSAL [R12A]`: “normalised enrichment score” 1.24.
Under “normalised enrichment score”, `CKKRKALDFLSRL [R5K]` is recorded as 0.19.
For `CKKRAALDFLSRL [R5A]`, “normalised enrichment score” read 0.854.
`CKKRAAADFLSRL [R5A L7A]`: “normalised enrichment score” 1.16.
Under “normalised enrichment score”, `AKKRRALDFLSRL [C1A]` is recorded as 0.462.
Under “normalised enrichment score”, `CKKRRALDALSRL [F9A]` is recorded as 0.803.
`CKKRRALDFASRL [L10A]`: “normalised enrichment score” 0.986.
